Results gathered from unrelated publications.
Every numbered part comes from another study and shows a few of its results, in no order.

Set 1
Target: RNA binding protein fox-1 homolog 2, RRM domain, GST-SBP tag (RBFOX2, Homo sapiens, UniProt O43251-10, residues 100-194)
Technique: RNA Bind-n-Seq
Molecule type: RNA
Medium: in vitro
Concentration: 365 nM
Setting: natural RNA segment, single round, ends assumed
Reference: no-protein control
Direction: higher = stronger binding
Shared flanks, not repeated: GGGAGUUCUACAGUCCGACGAUC … UGGAAUUCUCGGGUGCCAA
Oligonucleotide | RBNS enrichment (R)
CUCCAUCACAGAUGUCUGGAUGCUUUUGGAAAUGGCCUUGGCUAAAGUAAAAGGGAAAAGUAGAUCCGAUAACUUAAAAACGUAGCUCAUCCCUUACCAUCCAAGGGGCA | 0.483
AAACUAGCAAAUGAUGCAUGUAUUUUGUUUUUCAUGUACUGGGCAAUAUGAGUAAAAUCUGUCCCUUUUUCCCCCUUUGAAUGAGGUCUUCCAUGUUUGAGGGAAAGUCU | 7.39
AAACUAAAAAUGAAUCAUAAAAAACAAAUGGGUACAUGAUAUGGUAAGAUAAAUGAGGGGGAAAAAAACUAAAAAUAUGCUUUUGUCCCAAAUAUCUCAUUUUACAAGGU | 0.459
UGAGAUUUUAGAAUCUAAGAUAGCACGAGUGGGUAUAGAAGAUGGAAGAUACCGAUAAAUAACAUGGUUUAAGUGUCAAUAAAAUUCAUUCGAAGAGAUCAGGCGCGGUG | 2.11
UCCUGGGUUACCCUGGAUACCCCGAUGAACAGGAAAUCAAUGCCUGAGGCUGACUUCAGCUCCUGGACACCCUUAGAAUUCCUAGUUGGAACUUUCCAUGACUGGAUCAC | 0.401
UGAGGCAGGUGGCUGGGGGUGACACCAGGUGACAAGGGGACUCAGUGGCAGGGGGUCACACCAGGCAGAACACCAUACACUCUCCAUCAGCUGUCUGUCUGGAUGUCACU | 0.83
GGGAUAUGUAGGUCAAAUCAAAUUAAAGAUGAUUUUUUUAAUGUGAAUAAAGUUAUGUUCUGAUAGUUUGUACAGAAAAAAUAAAAUGGAUGCCCAUGUUUUAUUGCUAU | 8.38
AUUUAUAACCUCAGACUUGGGCCCCCUGUUCUUCUCCAUUAACUUGAGUGUUCUGUGUGAGACCAACAGACAGAUGCCUCAAGGACUUUUACUUUUUAUUACAUAAAAAA | 0.642

Set 2
Target: Interferon regulatory factor 3, full length, phosphomimetic (IRF3, Homo sapiens, UniProt Q14653, residues 1-427, S386D/S396D/S398D/S402D/T404D/S405D)
Sequence of UniProt Q14653 (whole entry, unmodified, looked up): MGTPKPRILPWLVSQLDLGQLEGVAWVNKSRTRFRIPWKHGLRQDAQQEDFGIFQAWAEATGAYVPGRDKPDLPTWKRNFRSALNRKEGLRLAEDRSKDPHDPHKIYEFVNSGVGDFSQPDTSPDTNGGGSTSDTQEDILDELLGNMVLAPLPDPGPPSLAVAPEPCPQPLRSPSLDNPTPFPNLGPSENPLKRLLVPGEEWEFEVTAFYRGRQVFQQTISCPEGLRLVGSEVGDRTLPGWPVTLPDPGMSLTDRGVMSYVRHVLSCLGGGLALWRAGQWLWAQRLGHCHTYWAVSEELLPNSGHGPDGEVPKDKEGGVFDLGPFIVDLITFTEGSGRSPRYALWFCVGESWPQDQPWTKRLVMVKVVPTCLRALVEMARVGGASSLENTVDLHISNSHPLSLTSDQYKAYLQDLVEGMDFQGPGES
Technique: protein-binding microarray
Molecule type: double-stranded DNA, one strand shown
Medium: in vitro
Concentration: 2540 nM top
Setting: 60-bp whole probe
Added: salmon DNA 0.4 mg/ml
Reference: random background probes
Direction: higher = stronger binding
Shared flanks, not repeated: GCCTAGCAC … GTCTTGATTCGCTTGACGCTGCTG
Oligonucleotide | fitted relative affinity [z-score]
TTAGATATCGGGTTTCGATTTGTGCTA | 3.17
TTAGGTTTCCTTTTGCTTTAGTGCTAG | 9.24
GACGGTCTCGGTCTCGGGGCGTGCTAG | 1.07
GACCGTTTCGGGTATCGGGACGTGCTA | 4.52
TGGTATTTTTTTGTAATCGAGTGCTAG | 0.41
GTTTCTCTTTCCTTCTTGATGTGCTAG | 9.38
GAGGGTCTCCTTCTCCTGACGTGCTAG | 2.74
TTAGGTATCGGTCTCGTTTAGTGCTAG | 4.68

Set 3
Target: Sal-like protein 4, full length isoform B (SALL4, Homo sapiens, UniProt Q9UJQ4-2, residues 1-616)
Technique: universal PBM
Molecule type: double-stranded DNA, one strand shown
Medium: in vitro
Concentration: not given
Setting: 8-mer, flanks averaged, mean of replicates
Direction: higher = stronger binding
Oligonucleotide | E-score
AACAGGGC | -0.2
CGCTGGCA | -0.233
CGCGAGCG | -0.269
ATAATTGG | 0.273
GGTGGTGA | -0.177
AAAGCGAC | -0.0847
ATGGCACG | -0.122
TACCCATA | 0.214
CTGAAGAA | -0.131
GGCCCGAA | -0.289
CGTGGCCC | -0.282
CGATGATC | 0.0646

Single results of other studies
Substance | target | test | system | setting | how to read | quantity | value
PhoQ, residues 284 288 289 292 302 303 NLGVHL | PhoP, residues 12 14 15 18 19 TQCLL (Escherichia coli, UniProt P23836) | Sort-seq, measured: YFP reporter | E. coli | PhoQ-PhoP variant library, added: 10 µM Mg2+ | reference: high Mg2+ state, higher = stronger signaling | fold induction | 2.17

For quick reference, copied from above (set 3):
Oligonucleotide | E-score
AAAGCGAC | -0.0847
CGCGAGCG | -0.269
